{"data": "Assay results pooled from the literature", "note": "A part holds a random share of what one study measured. “And” joins repeats or separate records; there may be more than shown. pIC50: −log10 of the molar value."}
{"data": "Series 1", "organism": "Sarcocystis neurona", "effect on": "parasite growth", "concentration": "10 µM", "time": "96 h", "notes": "first screen"}
{"SMILES": "NC(=O)OCCCc1ccccc1", "inhibition": "-29.5%"}
{"SMILES": "C[C@H]1CCC[C@H](O)CCCCCc2cc(O)cc(O)c2C(=O)O1", "inhibition": "32.7%"}
{"SMILES": "c1ccc(Cn2ccnc2)cc1", "inhibition": "-0.173%"}
{"data": "Series 2", "target": "Beta-1 adrenergic receptor (ADRB1, Homo sapiens, UniProt P08588)", "action": "antagonist", "UniProt P08588, sequence (whole entry, looked up)": "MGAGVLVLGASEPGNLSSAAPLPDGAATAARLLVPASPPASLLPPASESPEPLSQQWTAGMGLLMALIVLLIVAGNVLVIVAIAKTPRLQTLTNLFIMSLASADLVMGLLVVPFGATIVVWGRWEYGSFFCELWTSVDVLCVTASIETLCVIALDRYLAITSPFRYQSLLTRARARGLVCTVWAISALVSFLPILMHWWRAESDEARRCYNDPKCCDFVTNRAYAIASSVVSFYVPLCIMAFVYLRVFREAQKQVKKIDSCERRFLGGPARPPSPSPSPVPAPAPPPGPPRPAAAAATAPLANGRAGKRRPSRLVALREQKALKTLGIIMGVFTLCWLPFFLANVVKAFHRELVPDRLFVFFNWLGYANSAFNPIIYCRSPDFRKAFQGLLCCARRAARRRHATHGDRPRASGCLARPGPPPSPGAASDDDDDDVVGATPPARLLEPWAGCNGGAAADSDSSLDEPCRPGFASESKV"}
{"SMILES": "COCCN1CCN(c2ccccc2OC)CC1", "pIC50": "≤ 4.00"}
{"SMILES": "COc1cc2c(cc1OCc1ccccc1)N(C(=O)c1cccc3[nH]ccc13)CC21CCN(C)CC1", "pIC50": "≤ 4.00"}
{"SMILES": "CC1=C(C)C(=O)O[C@H]([C@](C)(O)C2(O)CC[C@@]3(O)[C@@H]4CC=C5CC=CC(=O)[C@]5(C)C4CC[C@]23C)C1 (some centres unmarked)", "pIC50": "≤ 4.00"}
{"SMILES": "NCCc1cc(O)c(O)cc1O", "pIC50": "≤ 4.00"}
{"data": "Series 3", "SMILES": "O=C1CCC(N2Cc3c(ccc4c3OCC43CCN(Cc4ccccc4)CC3)C2=O)C(=O)N1 (centres unmarked)", "KCNH2": "Voltage-gated inwardly rectifying potassium channel KCNH2 (KCNH2, Homo sapiens, UniProt Q12809)", "CRBN": "Protein cereblon (CRBN, Homo sapiens, UniProt Q96SW2)", "UniProt Q12809, sequence (whole entry, looked up)": "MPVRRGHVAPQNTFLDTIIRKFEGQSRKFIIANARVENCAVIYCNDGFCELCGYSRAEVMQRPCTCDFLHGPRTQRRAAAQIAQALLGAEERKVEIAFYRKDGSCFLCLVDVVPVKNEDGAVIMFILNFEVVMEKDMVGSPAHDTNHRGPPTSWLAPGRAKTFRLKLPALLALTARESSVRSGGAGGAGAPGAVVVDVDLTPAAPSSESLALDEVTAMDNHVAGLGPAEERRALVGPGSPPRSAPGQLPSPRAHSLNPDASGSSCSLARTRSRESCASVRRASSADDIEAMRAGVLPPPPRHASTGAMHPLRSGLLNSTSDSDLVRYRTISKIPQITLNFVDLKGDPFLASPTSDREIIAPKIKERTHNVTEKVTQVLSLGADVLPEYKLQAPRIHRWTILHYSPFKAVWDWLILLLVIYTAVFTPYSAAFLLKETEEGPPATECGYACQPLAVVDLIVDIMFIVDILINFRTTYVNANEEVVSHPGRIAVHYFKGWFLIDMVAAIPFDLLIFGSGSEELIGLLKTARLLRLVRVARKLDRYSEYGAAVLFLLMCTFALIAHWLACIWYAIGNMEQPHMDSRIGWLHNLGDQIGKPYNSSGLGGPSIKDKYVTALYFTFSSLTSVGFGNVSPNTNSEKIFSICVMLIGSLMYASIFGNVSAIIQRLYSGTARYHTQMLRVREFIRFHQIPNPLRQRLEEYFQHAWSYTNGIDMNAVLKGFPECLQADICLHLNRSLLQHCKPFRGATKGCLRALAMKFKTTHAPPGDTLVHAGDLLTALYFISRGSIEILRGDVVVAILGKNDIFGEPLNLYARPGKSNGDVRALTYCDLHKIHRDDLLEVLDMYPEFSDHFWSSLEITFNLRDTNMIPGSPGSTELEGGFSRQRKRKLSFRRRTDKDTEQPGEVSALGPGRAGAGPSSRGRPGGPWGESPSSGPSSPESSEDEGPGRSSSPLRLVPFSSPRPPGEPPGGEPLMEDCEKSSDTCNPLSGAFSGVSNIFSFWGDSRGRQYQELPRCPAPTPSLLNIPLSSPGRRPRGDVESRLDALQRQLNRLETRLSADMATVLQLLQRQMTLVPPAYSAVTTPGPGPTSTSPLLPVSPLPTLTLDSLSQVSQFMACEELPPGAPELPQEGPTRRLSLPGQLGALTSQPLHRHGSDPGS", "UniProt Q96SW2, sequence (whole entry, looked up)": "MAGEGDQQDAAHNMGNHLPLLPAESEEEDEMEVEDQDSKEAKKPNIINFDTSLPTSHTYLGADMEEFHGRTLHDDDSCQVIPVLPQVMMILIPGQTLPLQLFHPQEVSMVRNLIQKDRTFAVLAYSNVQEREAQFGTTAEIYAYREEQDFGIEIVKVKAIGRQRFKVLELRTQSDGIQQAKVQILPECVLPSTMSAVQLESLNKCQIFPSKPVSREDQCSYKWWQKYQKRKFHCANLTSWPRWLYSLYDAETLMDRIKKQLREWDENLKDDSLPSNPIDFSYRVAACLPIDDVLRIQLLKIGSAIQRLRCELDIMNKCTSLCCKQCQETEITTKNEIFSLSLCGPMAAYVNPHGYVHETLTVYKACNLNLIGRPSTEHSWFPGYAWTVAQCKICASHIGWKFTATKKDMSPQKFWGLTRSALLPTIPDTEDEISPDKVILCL"}
{"target": "KCNH2", "effect on": "hERG current", "technique": "voltage clamp", "cell line": "HEK293 stably expressing hERG", "concentration": "0.01 µM", "inhibition": "3.32% and 5.31% and 0.58%"}
{"target": "CRBN", "effect on": "cell-free assay", "technique": "TR-FRET", "concentration": "13.72 µM", "inhibition": "30.1%"}
{"target": "KCNH2", "effect on": "hERG current", "technique": "patch clamp", "cell line": "HEK293 expressing hERG", "concentration": "0.01 µM", "inhibition": "4.32%"}
{"target": "KCNH2", "effect on": "hERG current", "technique": "voltage clamp", "cell line": "HEK293 stably expressing hERG", "concentration": "0.1 µM", "inhibition": "76.8% and 83.7% and 76%"}
{"target": "CRBN", "effect on": "cell-free assay", "technique": "TR-FRET", "concentration": "0.51 µM", "inhibition": "0.9% and 2.9%"}
{"target": "KCNH2", "effect on": "hERG current", "technique": "patch clamp", "cell line": "HEK293 expressing hERG", "concentration": "1 µM", "inhibition": "84.9%"}
{"data": "Other studies, line by line"}
{"Structure (SMILES)": "COc1ccc(-c2c(Nc3ccccn3)[nH]c3c(C4=CCCCC4)c(-c4ccccc4)nn3c2=O)cc1", "host": "patients with advanced malignancies", "route": "oral", "dose": "dose not given", "notes": "treatment-emergent adverse events", "measurement": "decreased appetite incidence", "result": "20%"}
{"note": "For quick reference, copied from above (series 2):"}
{"SMILES": "CC1=C(C)C(=O)O[C@H]([C@](C)(O)C2(O)CC[C@@]3(O)[C@@H]4CC=C5CC=CC(=O)[C@]5(C)C4CC[C@]23C)C1 (some centres unmarked)", "pIC50": "≤ 4.00"}
